Experimental data gathered from unrelated publications.
Compare with care: the assays were run in different laboratories.
UniProt P22310, sequence (whole entry, looked up): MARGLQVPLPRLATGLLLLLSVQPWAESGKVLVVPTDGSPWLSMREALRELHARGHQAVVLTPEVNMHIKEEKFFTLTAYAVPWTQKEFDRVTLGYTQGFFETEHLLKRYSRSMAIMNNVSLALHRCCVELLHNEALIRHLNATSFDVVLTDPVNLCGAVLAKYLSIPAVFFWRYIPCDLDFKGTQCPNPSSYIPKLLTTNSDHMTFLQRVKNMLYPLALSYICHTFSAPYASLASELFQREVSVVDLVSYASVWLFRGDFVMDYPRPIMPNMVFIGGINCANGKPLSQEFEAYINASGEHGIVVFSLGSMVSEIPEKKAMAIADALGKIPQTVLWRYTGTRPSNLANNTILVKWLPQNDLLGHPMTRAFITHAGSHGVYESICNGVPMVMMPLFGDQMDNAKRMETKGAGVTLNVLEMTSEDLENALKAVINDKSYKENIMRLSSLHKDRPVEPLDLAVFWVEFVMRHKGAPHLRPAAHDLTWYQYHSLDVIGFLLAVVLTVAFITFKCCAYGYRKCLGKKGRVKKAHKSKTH
UniProt Q13546, sequence (whole entry, looked up): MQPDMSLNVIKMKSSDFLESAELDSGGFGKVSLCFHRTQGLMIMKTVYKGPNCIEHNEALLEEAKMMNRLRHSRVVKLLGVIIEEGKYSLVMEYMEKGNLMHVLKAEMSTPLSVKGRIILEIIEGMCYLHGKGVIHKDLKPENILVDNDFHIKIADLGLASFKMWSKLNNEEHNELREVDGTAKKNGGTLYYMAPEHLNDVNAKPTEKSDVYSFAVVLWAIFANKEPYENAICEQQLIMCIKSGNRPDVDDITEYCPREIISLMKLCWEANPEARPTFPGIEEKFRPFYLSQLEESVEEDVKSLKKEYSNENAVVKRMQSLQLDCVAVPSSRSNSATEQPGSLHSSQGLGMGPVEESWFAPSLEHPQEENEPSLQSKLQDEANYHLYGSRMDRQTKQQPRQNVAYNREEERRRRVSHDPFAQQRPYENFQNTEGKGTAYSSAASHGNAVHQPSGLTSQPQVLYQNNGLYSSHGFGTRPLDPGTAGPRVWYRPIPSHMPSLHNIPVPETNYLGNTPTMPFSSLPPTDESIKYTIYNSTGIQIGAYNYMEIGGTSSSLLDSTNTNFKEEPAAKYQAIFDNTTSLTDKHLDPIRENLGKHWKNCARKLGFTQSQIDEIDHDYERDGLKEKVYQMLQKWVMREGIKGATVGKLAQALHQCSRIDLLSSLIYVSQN
UniProt P48067, sequence (whole entry, looked up): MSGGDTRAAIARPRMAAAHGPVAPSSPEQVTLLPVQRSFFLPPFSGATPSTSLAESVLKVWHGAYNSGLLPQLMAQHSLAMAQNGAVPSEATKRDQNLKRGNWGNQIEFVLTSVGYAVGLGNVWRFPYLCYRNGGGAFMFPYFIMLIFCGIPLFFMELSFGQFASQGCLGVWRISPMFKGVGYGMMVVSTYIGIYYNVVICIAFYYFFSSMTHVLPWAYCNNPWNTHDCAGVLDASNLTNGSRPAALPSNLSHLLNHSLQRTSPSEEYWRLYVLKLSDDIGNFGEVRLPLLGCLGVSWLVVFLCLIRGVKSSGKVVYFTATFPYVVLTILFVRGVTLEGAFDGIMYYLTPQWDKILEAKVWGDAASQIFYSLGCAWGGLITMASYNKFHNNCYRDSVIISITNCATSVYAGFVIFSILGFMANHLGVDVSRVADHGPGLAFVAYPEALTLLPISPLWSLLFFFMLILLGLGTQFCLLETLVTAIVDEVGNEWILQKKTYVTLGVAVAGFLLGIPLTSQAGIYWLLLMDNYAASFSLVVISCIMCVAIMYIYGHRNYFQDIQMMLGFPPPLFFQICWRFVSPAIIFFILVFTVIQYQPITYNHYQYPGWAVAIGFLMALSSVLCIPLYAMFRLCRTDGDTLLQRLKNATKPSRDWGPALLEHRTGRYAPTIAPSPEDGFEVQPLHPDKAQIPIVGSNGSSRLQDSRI
UniProt O14920, sequence (whole entry, looked up): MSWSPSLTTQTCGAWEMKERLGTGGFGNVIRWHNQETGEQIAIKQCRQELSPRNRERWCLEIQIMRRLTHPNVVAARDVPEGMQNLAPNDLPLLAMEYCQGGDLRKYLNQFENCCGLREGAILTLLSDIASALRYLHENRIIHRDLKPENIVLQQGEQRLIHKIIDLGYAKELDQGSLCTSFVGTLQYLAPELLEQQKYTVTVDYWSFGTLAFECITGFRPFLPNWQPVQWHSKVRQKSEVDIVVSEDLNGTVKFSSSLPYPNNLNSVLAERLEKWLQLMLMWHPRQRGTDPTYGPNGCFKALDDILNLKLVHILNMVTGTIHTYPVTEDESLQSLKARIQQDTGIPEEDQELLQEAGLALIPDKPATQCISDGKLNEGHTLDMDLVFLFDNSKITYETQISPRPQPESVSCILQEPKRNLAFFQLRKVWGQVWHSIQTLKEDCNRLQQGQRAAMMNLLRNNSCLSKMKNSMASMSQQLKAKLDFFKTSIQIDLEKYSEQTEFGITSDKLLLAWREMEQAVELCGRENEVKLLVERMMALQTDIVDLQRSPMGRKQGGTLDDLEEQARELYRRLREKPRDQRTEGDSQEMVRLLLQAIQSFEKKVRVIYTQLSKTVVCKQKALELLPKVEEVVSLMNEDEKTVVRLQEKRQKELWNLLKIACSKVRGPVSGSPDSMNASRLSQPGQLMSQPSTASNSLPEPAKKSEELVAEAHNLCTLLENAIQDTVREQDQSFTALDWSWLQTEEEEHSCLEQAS
UniProt P49116, sequence (whole entry, looked up): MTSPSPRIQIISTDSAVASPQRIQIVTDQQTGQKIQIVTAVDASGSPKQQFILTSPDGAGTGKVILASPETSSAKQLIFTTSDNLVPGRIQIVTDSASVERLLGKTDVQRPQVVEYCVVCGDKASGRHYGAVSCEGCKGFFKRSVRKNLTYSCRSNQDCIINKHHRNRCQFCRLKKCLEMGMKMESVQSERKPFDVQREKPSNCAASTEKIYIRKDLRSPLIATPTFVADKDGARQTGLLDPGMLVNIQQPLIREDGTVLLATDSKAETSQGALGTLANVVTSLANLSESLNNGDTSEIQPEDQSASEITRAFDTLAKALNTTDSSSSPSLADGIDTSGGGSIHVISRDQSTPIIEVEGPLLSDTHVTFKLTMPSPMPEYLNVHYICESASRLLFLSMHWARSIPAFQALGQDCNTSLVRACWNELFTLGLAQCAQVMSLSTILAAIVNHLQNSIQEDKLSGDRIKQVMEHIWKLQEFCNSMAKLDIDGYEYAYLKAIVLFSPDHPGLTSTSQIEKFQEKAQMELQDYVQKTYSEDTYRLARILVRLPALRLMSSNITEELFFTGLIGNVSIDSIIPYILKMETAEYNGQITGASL
UniProt P54764, sequence (whole entry, looked up): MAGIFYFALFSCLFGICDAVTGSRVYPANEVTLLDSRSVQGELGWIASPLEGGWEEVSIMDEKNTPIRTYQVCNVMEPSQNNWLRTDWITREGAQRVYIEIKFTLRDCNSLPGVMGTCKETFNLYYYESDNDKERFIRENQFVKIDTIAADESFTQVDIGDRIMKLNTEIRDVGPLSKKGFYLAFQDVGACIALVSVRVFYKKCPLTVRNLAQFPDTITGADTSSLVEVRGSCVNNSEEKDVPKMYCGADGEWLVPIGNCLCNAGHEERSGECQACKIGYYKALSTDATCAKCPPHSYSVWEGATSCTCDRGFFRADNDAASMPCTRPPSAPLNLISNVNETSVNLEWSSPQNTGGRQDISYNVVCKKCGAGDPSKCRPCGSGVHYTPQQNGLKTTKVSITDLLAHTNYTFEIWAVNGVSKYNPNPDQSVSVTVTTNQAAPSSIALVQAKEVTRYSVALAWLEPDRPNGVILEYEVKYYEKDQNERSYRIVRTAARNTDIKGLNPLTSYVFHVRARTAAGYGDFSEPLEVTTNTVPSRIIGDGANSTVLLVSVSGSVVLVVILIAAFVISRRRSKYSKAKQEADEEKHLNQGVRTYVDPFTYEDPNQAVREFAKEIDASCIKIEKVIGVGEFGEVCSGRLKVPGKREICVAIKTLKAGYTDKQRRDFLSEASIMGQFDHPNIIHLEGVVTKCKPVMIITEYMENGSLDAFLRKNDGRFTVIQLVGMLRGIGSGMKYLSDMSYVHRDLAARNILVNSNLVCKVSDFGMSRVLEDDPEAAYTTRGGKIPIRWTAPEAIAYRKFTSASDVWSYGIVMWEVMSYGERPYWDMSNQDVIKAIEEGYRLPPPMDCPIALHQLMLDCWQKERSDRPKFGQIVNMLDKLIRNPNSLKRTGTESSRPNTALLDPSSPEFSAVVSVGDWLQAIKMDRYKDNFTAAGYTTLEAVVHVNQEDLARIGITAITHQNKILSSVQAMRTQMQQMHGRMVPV
UniProt Q7KZI7, sequence (whole entry, looked up): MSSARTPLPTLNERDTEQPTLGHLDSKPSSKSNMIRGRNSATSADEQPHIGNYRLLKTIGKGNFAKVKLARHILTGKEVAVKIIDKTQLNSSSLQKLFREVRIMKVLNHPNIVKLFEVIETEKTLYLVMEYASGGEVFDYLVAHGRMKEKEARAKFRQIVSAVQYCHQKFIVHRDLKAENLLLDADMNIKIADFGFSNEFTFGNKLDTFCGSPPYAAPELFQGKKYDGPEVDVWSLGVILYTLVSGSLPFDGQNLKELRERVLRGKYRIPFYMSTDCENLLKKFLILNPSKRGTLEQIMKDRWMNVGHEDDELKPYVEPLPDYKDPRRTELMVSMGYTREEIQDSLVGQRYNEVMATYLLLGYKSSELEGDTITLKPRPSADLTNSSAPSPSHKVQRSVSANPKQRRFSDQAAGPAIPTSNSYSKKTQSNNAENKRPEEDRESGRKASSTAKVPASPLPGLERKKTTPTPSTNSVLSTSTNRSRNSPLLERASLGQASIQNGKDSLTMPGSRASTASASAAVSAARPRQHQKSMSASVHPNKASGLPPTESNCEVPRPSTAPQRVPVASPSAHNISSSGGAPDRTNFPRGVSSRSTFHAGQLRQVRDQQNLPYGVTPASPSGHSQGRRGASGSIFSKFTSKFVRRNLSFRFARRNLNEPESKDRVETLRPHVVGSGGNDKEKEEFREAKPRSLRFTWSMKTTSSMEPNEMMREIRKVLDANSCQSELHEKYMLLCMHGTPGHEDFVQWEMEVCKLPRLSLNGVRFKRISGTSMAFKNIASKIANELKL

| Structure (SMILES) | tested on | assay | system | conditions | scale | measurement | result |
| --- | --- | --- | --- | --- | --- | --- | --- |
| Cc1cc(NC(=O)c2cccc(NC(=O)/C=C/CN(C)C)c2)ccc1Nc1nccc(-c2cccnc2)n1 | Mitogen-activated protein kinase 8, phosphorylated (MAPK8, Homo sapiens, UniProt P45983) | enzyme activity after dialysis, inhibitor |  | 10 µM, 5 days, unit not given | reference: no inhibitor | remaining activity | 0.0686 |
| CC(C)(C)OC(=O)Nc1ccc(-c2cc(C(=O)NCCCCCCC(=O)NO)no2)cc1 | OCI-Ly1 |  |  | 0.1 µM, 120 h |  | viability | 97.5% |
| O=C(O)c1ccc(Nc2ncc3c(n2)-c2ccc(Cl)cc2C(c2c(F)cccc2F)=NC3)cc1 | p70S6K(h) | kinase activity |  | 1 µM |  | remaining activity | 94% |
| CN(C)CCC=C1c2ccccc2CCc2ccccc21 | Nuclear receptor subfamily 2 group C member 2, ligand-binding domain (Homo sapiens, UniProt P49116) | SPR imaging |  |  |  | Kd | 0.024 nM |
| O=C([C@@H](Cc1cccc(C(F)(F)F)c1)NS(=O)(=O)c1cc(F)c2c(c1)CCNC2)N1CCCC1 | OCI-Ly1 |  |  | 1 µM, 120 h |  | viability | 94.3% |
| COc1cc(F)ccc1-c1ncnc(Nc2cccc(C[S@](C)(=N)=O)c2)n1 | Inhibitor of nuclear factor kappa-B kinase subunit beta (IKBKB, Homo sapiens, UniProt O14920) | kinase activity |  | 10 µM, added: 10 µM ATP |  | remaining activity | 101% |
| O=C1NC(=O)/C(=C/c2ccc(-c3ccc(F)cc3O)o2)S1 | Ephrin type-A receptor 4 (EPHA4, Homo sapiens, UniProt P54764) | enzyme activity |  | 10 µM |  | remaining activity | 74% |
| O=C(NC1CCC1)c1ccc2nc(-c3cccc(NS(=O)(=O)NCCN4CCCCC4)c3)cn2c1 | AP2-associated protein kinase 1 (AAK1, Homo sapiens, UniProt Q2M2I8) | enzyme activity |  | 10 µM |  | remaining activity | 87% |
| COc1cc(Nc2ncc3c(n2)-c2ccc(Cl)cc2C(c2c(F)cccc2OC)=NC3)ccc1C(=O)O | GRK6 | kinase activity |  | 1 µM |  | remaining activity | 94% |
| O=c1cc(-c2ccc(O)c(-c3c(O)cc(O)c4c(=O)cc(-c5ccc(O)cc5)oc34)c2)oc2cc(O)cc(O)c12 | UDP-glucuronosyltransferase 1A4 (UGT1A4, Homo sapiens, UniProt P22310) | glucuronidation, inhibitor | human liver microsomes | 10 µM, added: probe substrate 0.5 µM | reference: no inhibitor | remaining activity | ~20% |
| CNc1ncc2c(/C=C/C(=O)N3CCC(OC)CC3)nn(Cc3cccc(C(F)(F)F)c3)c2n1 | Serine/threonine-protein kinase MARK2 (MARK2, Homo sapiens, UniProt Q7KZI7) | kinase activity, inhibitor |  | 1 µM | reference: untreated control | remaining activity | 92% |
| Cc1cc(Nc2cc(N3CCN(C)CC3)nc(Sc3ccc(NC(=O)C4CC4)cc3)n2)[nH]n1 | Serine/threonine-protein kinase pim-2 (PIM2, Homo sapiens, UniProt Q9P1W9) | kinase activity, KinaseProfiler |  | 0.03 µM, species human | reference: control | remaining activity | 104% |
| CNCC(=O)O | Sodium- and chloride-dependent glycine transporter 1 (SLC6A9, Homo sapiens, UniProt P48067) | [3H]glycine uptake, inhibitor | HEK293F cells | 100 µM | reference: cells without inhibitor | remaining activity | 97% |
| C=CC(=O)N1CCC[C@@H](n2nc(-c3ccc(Oc4ccccc4)cc3)c3c(N)ncnc32)C1 | Glutaryl-CoA dehydrogenase, mitochondrial (Homo sapiens, UniProt Q92947) |  |  | 10 µM |  | remaining activity | 50.6% |
| COc1cc(-c2cncc3c2CN(C)Cc2cc(N4CCNCC4)ccc2-3)cc(OC)c1OC | Receptor-interacting serine/threonine-protein kinase 1 (RIPK1, Homo sapiens, UniProt Q13546) | kinase activity |  | 1 µM, human enzyme, added: ATP 10 µM | reference: DMSO control | remaining activity | 108% |

Some of these lines once more:
| Structure (SMILES) | tested on | assay | system | conditions | scale | measurement | result |
| --- | --- | --- | --- | --- | --- | --- | --- |
| O=C([C@@H](Cc1cccc(C(F)(F)F)c1)NS(=O)(=O)c1cc(F)c2c(c1)CCNC2)N1CCCC1 | OCI-Ly1 |  |  | 1 µM, 120 h |  | viability | 94.3% |
